Measured values gathered from unrelated publications.
Protocols differ between the studies behind these lines. ± gives the spread as reported.
FGFR3 isoform IIIc: FGFR3 isoform IIIc (unknown, UniProt Q61851)
Chain of UniProt Q61851 (whole entry, looked up): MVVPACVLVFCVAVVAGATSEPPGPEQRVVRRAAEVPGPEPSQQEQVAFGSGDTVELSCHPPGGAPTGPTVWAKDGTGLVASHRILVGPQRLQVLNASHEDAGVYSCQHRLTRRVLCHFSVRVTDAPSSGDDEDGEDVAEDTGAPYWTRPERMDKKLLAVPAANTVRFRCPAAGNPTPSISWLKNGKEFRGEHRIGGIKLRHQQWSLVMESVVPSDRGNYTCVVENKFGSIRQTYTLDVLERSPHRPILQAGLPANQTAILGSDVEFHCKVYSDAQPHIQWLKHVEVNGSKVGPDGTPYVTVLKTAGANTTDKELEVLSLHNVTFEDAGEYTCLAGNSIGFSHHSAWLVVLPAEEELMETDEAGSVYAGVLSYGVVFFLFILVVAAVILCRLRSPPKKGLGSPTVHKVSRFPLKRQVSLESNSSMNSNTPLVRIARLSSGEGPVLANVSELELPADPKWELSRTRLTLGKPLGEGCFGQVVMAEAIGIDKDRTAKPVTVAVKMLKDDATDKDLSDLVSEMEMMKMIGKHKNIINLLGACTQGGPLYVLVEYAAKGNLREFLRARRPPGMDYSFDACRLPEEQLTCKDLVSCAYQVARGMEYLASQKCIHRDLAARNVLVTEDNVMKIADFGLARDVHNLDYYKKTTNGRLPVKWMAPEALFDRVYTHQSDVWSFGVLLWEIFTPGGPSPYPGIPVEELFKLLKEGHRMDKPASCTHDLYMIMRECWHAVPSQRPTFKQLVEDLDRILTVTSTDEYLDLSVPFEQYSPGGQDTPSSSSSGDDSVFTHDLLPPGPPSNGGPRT
Rbpj: Rbpj 53-474 (Mus musculus, UniProt P31266)
Chain of UniProt P31266 (whole entry, looked up): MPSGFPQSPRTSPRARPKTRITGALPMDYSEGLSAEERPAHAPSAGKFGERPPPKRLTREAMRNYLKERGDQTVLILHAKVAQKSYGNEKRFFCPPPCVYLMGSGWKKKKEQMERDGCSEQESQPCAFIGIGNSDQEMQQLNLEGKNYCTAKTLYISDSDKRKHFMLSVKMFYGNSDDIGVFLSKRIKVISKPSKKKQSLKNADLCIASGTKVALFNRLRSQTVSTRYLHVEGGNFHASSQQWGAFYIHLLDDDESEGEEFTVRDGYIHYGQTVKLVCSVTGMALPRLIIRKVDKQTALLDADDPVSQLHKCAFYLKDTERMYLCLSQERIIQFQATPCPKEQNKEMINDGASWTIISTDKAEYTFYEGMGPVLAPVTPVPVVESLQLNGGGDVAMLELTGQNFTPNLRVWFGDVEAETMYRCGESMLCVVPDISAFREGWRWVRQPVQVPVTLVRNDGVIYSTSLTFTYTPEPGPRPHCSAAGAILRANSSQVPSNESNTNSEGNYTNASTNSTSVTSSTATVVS
B1: FGF6 (Homo sapiens, UniProt P10767); chain SPAGTRANNTLLDSRGWGTLLSRSRAGLAGEIAGVNWESGYLVGIKRQRRLYCNVGIGFHLQVLPDGRISGTHEENPYSLLEISTVERGVVSLFGVRSALFVAMNSKGRLYATPSFQEECKFRETLLPNNYNAYESDLYQGTYIALSKYGRVKRGSKVSPIMTVTHFLPRI
B2: Il2 Q30W (Mus musculus, UniProt P04351); chain APTSSSTSSSTAEAQQQQQQQQQQQQHLEWLLMDLQELLSRMENYRNLKLPRMLTFKFYLPKQATELKDLQCLEDELGPLRHVLDLTQSKSFQLEDAENFISNIRVTVVKLKGSDNTFECQFDDESATVVDFLRRWIAFCQSIISTSPQ
B3: TIMP3 24-144 (Homo sapiens, UniProt P35625); sequence looked up; chain CTCSPSHPQDAFCNSDIVIRAKVVGKKLVKEGPFGTLVYTIKQMKMYRGFTKMPHVQYIHTEASESLCGLKLEVNKYQYLLTGRVYDGKMYTGLCNFVERWDQLTLSQRKGLNYRYHLGCN
B4: mel-26 (Caenorhabditis elegans, UniProt Q94420); sequence looked up; chain MEPRIDGGVFIGGIGNSGNEMCSNGVPALGVSSQTEIKVEKVQHTWTVKNFSHCYQEYLENFVYLQRGDEQLTWSIKIYPKGNGENNKDFVFLCLNRVINNNVKAGKIGFKSQFKLRTAENKDIEMRIHPNPSHSDYVSYIKRDVLFPQIMPRDMIIVNVEIDVAVETITTTNEPIQFEPTNSEQQLIEDYQRLFSQELLCDFAINVNGKIIRAHKAVLAARSPVFNAMLTHQDTDEAKSSMMYINDMDYDVIYEMVYYIYCGRCNKDITDMATALLIAADKYRLEELKSHCEKYLVENINIENACSLLIIGDLYSAPKLRKRAVTYILARPKNVTGTPGWEDILKGHPNLITDIFSQIDRQSSTGATSSVSNLPGVPMDIPGITGNIVPPPSGL
B5: ricA (Bacillus subtilis, UniProt O31779); chain MTLYSKKDIVQQARNLAKMISETEEVDFFKRAEAQINENDKVSTIVNQIKALQKQAVNLKHYEKHEALKQVEAKIDALQEELEEIPVIQEFRDSQMEVNDLLQLVAHTISNQVTNEIITSTGGDLLKGETGSKVKHSNNSCSL
B6: NRD1 6-151 (Saccharomyces cerevisiae, UniProt P53617); sequence looked up; chain DFQNFVATLESFKDLKSGISGSRIKKLTTYALDHIDIESKIISLIIDYSRLCPDSHKLGSLYIIDSIGRAYLDETRSNSNSSSNKPGTCAHAINTLGEVIQELLSDAIAKSNQDHKEKIRMLLDIWDRSGLFQKSYLNAIRSKCFA
B7: TIMP3 mature (Homo sapiens, UniProt P35625); N-glycosylated; sequence looked up; chain CTCSPSHPQDAFCNSDIVIRAKVVGKKLVKEGPFGTLVYTIKQMKMYRGFTKMPHVQYIHTEASESLCGLKLEVNKYQYLLTGRVYDGKMYTGLCNFVERWDQLTLSQRKGLNYRYHLGCNCKIKSCYYLPCFVTSKNECLWTDMLSNFGYPGYQSKHYACIRQKGGYCSWYRGWAPPDKSIINATDP
B8: GLI2 zinc finger , SNAP fusion 418-604 (Homo sapiens, UniProt P10070); Alexa-647 label; sequence looked up; chain KEDLDRDDCKQEAEVVIYETNCHWEDCTKEYDTQEQLVHHINNEHIHGEKKEFVCRWQACTREQKPFKAQYMLVVHMRRHTGEKPHKCTFEGCSKAYSRLENLKTHLRSHTGEKPYVCEHEGCNKAFSNASDRAKHQNRTHSNEKPYICKIPGCTKRYTDPSSLRKHVKTVHGPDAHVTKKQRNDVH
B9: TUB1/TUB2 heterodimer D118A (Saccharomyces cerevisiae); chain 1 MREVISINVGQAGCQIGNACWELYSLEHGIKPDGHLEDGLSKPKGGEEGFSTFFHETGYGKFVPRAIYVDLEPNVIDEVRNGPYKDLFHPEQLISGKEDAANNYARGHYTVGREILGAVLDRIRKLADQCDGLQGFLFTHSLGGGTGSGLGSLLLEELSAEYGKKSKLEFAVYPAPQVSTSVVEPYNTVLTTHTTLEHADCTFMVDNEAIYDMCKRNLDIPRPSFANLNNLIAQVVSSVTASLRFDGSLNVDLNEFQTNLVPYPRIHFPLVSYSPVLSKSKAFHESNSVSEITNACFEPGNQMVKCDPRDGKYMATCLLYRGDVVTRDVQRAVEQVKNKKTVQLVDWCPTGFKIGICYEPPTATPNSQLATVDRAVCMLSNTTSIAEAWKRIDRKFDLMYAKRAFVHWYVGEGMEEGEFTEAREDLAALERDYIEVGADSYAEEEEF; chain 2 MREIIHISTGQCGNQIGAAFWETICGEHGLDFNGTYHGHDDIQKERLNVYFNEASSGKWVPRSINVDLEPGTIDAVRNSAIGNLFRPDNYIFGQSSAGNVWAKGHYTEGAELVDSVMDVIRREAEGCDSLQGFQITHSLGGGTGSGMGTLLISKIREEFPDRMMATFSVLPSPKTSDTVVEPYNATLSVHQLVEHSDETFCIDNEALYDICQRTLKLNQPSYGDLNNLVSSVMSGVTTSLRYPGQLNSDLRKLAVNLVPFPRLHFFMVGYAPLTAIGSQSFRSLTVPELTQQMFDAKNMMAAADPRNGRYLTVAAFFRGKVSVKEVEDEMHKVQSKNSDYFVEWIPNNVQTAVCSVAPQGLDMAATFIANSTSIQELFKRVGDQFSAMFKRKAFLHWYTSEGMDELEFSEAESNMNDLVSEYQQYQEATVEDDEEVDENGDFGAPQNQDEPITENFE
B10: UGT1A9 (Homo sapiens, UniProt O60656); chain GKLLVVPMDGSHWFTMRSVVEKLILRGHEVVVVMPEVSWQLGRSLNCTVKTYSTSYTLEDLDREFKAFAHAQWKAQVRSIYSLLMGSYNDIFDLFFSNCRSLFKDKKLVEYLKESSFDAVFLDPFDNCGLIVAKYFSLPSVVFARGILCHYLEEGAQCPAPLSYVPRILLGFSDAMTFKERVRNHIMHLEEHLLCHRFFKNALEIASEILQTPVTEYDLYSHTSIWLLRTDFVLDYPKPVMPNMIFIGGINCHQGKPLPMEFEAYINASGEHGIVVFSLGSMVSEIPEKKAMAIADALGKIPQTVLWRYTGTRPSNLANNTILVKWLPQNDLLGHPMTRAFITHAGSHGVYESICNGVPMVMMPLFGDQMDNAKRMETKGAGVTLNVLEMTSEDLENALKAVINDKSYKENIMRLSSLHKDRPVEPLDLAVFWVEFVMRHKGAPHLRPAAHDLTWYQYHSLDVIGFLLAVVLTVAFITFKCCAYGYRKCLGKKGRVKKAHKSKTH
Chain of UniProt P08253 (whole entry, unmodified, looked up): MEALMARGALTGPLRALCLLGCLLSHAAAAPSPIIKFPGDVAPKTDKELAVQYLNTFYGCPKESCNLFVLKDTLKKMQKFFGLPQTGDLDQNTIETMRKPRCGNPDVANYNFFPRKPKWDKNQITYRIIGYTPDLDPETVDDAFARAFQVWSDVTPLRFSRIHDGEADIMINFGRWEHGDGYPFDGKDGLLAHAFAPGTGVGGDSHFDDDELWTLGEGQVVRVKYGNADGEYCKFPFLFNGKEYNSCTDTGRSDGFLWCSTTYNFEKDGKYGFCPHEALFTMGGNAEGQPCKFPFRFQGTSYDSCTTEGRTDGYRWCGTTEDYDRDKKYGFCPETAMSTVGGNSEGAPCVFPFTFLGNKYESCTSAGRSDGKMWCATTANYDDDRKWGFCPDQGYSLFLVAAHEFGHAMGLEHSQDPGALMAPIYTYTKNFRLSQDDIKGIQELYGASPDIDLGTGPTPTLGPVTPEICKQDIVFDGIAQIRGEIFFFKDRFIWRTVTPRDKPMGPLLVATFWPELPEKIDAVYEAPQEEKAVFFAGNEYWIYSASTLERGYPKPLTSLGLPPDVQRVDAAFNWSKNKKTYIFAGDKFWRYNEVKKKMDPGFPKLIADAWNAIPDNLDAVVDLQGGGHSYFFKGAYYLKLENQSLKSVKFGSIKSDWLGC
Chain of UniProt P70618 (whole entry, unmodified, looked up): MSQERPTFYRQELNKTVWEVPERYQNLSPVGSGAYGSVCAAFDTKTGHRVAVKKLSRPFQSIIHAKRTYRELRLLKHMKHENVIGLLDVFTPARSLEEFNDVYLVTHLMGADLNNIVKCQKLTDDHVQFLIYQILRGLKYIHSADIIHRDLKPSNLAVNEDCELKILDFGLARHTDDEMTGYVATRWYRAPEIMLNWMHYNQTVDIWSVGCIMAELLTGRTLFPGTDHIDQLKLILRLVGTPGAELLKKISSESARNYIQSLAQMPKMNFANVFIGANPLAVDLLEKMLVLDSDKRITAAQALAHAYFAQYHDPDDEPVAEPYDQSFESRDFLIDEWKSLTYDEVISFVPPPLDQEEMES
Chain of UniProt Q8NFZ0 (whole entry, looked up): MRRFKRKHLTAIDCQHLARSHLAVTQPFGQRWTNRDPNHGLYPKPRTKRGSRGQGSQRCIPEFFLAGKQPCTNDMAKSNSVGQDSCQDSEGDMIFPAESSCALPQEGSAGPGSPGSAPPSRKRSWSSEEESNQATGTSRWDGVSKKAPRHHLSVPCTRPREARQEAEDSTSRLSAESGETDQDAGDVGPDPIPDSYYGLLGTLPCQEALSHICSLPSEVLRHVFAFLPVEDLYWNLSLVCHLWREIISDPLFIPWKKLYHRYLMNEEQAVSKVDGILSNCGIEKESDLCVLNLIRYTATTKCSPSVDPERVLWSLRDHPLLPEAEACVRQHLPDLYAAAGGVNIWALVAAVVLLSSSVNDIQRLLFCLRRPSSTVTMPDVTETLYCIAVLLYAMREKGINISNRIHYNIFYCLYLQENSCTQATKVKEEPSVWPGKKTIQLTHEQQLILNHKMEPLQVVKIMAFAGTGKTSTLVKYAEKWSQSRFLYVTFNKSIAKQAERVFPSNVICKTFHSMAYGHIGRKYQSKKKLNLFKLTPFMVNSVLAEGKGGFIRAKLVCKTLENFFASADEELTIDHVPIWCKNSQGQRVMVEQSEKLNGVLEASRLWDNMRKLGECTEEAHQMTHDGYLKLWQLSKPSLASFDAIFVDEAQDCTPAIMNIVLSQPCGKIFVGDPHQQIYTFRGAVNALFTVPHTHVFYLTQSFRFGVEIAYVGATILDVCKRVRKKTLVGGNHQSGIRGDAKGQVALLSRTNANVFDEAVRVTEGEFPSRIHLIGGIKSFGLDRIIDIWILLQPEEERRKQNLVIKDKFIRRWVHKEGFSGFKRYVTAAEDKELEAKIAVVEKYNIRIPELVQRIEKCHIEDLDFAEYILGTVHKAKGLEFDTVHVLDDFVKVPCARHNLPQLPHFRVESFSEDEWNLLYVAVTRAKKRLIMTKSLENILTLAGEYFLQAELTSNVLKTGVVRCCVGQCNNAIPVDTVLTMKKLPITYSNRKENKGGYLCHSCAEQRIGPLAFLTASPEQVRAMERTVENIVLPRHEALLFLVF
Chain of UniProt Q8CEG8 (whole entry, looked up): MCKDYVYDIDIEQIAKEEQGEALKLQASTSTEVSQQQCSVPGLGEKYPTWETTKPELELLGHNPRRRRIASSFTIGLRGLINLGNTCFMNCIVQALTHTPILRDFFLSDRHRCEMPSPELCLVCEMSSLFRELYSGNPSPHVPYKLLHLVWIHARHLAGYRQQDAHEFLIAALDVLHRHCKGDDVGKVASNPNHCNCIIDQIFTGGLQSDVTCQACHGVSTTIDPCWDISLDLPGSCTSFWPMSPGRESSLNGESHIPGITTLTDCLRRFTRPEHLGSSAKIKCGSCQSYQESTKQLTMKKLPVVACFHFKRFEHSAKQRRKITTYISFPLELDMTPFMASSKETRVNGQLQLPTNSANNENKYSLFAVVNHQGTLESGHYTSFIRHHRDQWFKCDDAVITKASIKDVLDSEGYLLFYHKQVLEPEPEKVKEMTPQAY
Chain of UniProt P28630 (whole entry, looked up): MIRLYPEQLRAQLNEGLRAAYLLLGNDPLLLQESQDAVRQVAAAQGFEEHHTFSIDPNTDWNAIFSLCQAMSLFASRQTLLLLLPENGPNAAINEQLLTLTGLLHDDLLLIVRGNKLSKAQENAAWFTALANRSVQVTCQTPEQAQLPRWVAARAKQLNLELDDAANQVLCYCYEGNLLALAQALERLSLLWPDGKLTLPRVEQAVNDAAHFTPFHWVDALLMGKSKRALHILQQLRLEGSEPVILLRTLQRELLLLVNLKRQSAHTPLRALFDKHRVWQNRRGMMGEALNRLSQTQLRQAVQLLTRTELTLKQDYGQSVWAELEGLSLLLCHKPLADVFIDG
Chain of UniProt P06535 (whole entry, looked up): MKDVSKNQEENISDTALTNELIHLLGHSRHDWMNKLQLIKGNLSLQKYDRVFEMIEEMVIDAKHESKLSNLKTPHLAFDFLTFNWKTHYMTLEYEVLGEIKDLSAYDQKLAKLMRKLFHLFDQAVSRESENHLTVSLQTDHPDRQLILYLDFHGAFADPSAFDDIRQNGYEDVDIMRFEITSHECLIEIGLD
Chain of UniProt P16297 (whole entry, looked up): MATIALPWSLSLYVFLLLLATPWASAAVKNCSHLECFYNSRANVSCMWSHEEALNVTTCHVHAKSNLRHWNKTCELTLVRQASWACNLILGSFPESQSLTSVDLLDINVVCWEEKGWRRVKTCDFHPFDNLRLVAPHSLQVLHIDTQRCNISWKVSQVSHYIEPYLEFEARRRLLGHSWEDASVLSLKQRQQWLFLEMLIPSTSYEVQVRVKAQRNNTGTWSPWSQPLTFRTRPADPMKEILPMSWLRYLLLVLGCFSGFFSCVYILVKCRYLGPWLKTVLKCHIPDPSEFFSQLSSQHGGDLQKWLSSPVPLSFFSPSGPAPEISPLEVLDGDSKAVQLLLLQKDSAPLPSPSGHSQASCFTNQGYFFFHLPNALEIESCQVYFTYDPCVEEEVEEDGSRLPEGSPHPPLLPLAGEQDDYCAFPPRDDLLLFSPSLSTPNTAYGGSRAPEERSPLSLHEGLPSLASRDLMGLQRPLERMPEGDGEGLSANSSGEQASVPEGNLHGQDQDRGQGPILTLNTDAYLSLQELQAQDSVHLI
Chain of UniProt P0A6A8 (whole entry, looked up): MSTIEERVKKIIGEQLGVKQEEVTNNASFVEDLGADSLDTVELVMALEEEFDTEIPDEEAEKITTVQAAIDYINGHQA

YANQLKFRKKKLKFCK (SETD1B D-site peptide (Homo sapiens)) — IC50 (Mapk14 D315S/D316E/E317A, pT180, pY182 (Rattus norvegicus, UniProt P70618); kinase activity, inhibitor, competitive kinase inhibition assay; peptide; added: ATP 1 mM): 8000 nM
holA (Escherichia coli, UniProt P28630) — concentration for unloading (dnaN dimer (Escherichia coli); unloading of 32P-β from DNA; 50%, 10 min): 146 nM
RAD51 (Homo sapiens, UniProt Q06609) — koff (FBH1, polyubiquitinated (Homo sapiens, UniProt Q8NFZ0); single-molecule TIRFM; apparent, added: ATP 1 mM): 0.11 s⁻¹
YAEKHRRAKLRLYLEQ (MXD4 D-site peptide (Homo sapiens)) — IC50 (Mapk14, pT180, pY182 (Rattus norvegicus, UniProt P70618); kinase activity, inhibitor, competitive kinase inhibition assay; peptide; added: ATP 1 mM): 5200 nM
B1 (FGF6) — cell proliferation (FGFR3 isoform IIIc; cell proliferation, MTT; BaF3-FGFR3c; 20 nM, 48 h, added: chondroitin sulfate B 4.9 µg/mL; reference: FGF 1 with heparin, higher = more proliferation): 17%
Prkcb (Mus musculus, UniProt P68404) — association increase (integrin β3 (Mus musculus, UniProt O54890); co-IP; aortas; diabetic mice; reference: euglycemic controls, higher = more association): 2.5 fold
TFPI (Homo sapiens, UniProt P10646-1) — IC50 (F5 B-domain deleted 811-1490 R709Q/R1545Q (UniProt P12259); prothrombinase inhibition, inhibitor; added: fondaparinux 0.8 u/mL): 8.4 nM
AMA C-terminal 7 residues (Methanosarcina mazei) — peptide hydrolysis (20S proteasome core particle (Methanosarcina mazei, UniProt Q8PTU1); LFP hydrolysis, activator; 0.6 nM CP, 37 °C; reference: MmCP alone, higher = more hydrolysis): 9 fold
fabF K65A/R127A/K128A (Escherichia coli) — condensation rate (acpP C12-acylated 1-78, C12 acyl on 4'-phosphopantetheine (Escherichia coli, UniProt P0A6A8); holo-AcpP formation, HPLC; 10 µM, added: malonyl-CoA): 0.4 min⁻¹
Ac-SQHNRQLLRGALRRWK-NH2 (SFI1 repeat 18, 677-692 (Homo sapiens); N-acetyl; C-terminal amide) — ΔH (CETN1, phosphothreonine (Homo sapiens, UniProt Q12798); ITC; peptide): -43 kcal/mol
FGF8b (Homo sapiens) — cell proliferation (FGFR3 isoform IIIc; cell proliferation, MTT; BaF3-FGFR3c; 20 nM, 48 h, added: heparan sulfate 4.9 µg/mL; reference: FGF 1 with heparin, higher = more proliferation): 103%
B2 (Il2 Q30W) — pSTAT5+ CD8 T cells (Il2rb (Mus musculus, UniProt P16297); flow cytometry; mouse splenocytes; reference: wildtype IL2, higher = greater increase): 100 fold
B3 (TIMP3 24-144) — Ki (MMP3 100-272 (Homo sapiens, UniProt P08254); inhibitor, steady-state kinetics; 1 h, 37 °C, apparent, tight-binding fit): 9.1 nM
B4 (mel-26) — binding (mei-1/mei-2, pS92 (Caenorhabditis elegans); dot blot; 4 °C, native): binds
Pfa1 G-patch (Chaetomium thermophilum) — unwinding rate constant (RNA helicase (Thermochaetoides thermophila, UniProt G0RY84); RNA unwinding, activator): 4.6 min⁻¹
GLP-2 mature G4A, C-terminal amide — relative cAMP production (GLP2R (Homo sapiens, UniProt O95838); cAMP, agonist; reference: GLP-2, higher = more cAMP): 109%
VKKATATTTWMVPTAQ (L3MBTL3 55-70 (Homo sapiens, UniProt Q96JM7-2); sequence looked up) — ΔH (Rbpj; ITC; peptide; pH 6.5, 25 °C, NaCl 150 mM): -8.9 kcal/mol
FGF8 (Homo sapiens, UniProt P55075) — cell proliferation (FGFR3 isoform IIIc; cell proliferation, MTT; BaF3-FGFR3c; 20 nM, 48 h, added: chondroitin sulfate D 4.9 µg/mL; reference: FGF 1 with heparin, higher = more proliferation): 45%
SUMO1 fragment H89A (Arabidopsis thaliana) — SUMO conjugation rate (SAE2/SAE1a (Arabidopsis thaliana); SUMO conjugation; 42 °C; reference: native AtSUMO1, higher = faster conjugation): 40%
B5 (ricA) — β-galactosidase activity ratio (spo0B (Bacillus subtilis, UniProt P06535); bacterial two-hybrid; E. coli BTH101; 16 hrs, 30 °C; reference: T18–T25 negative control, higher = stronger interaction): 11 ratio
B6 (NRD1 6-151) — fold increase in Kd (Sen1 2053-2064 Y2058F, 5-FAM label (Saccharomyces cerevisiae); fluorescence polarisation; reference: wild-type NIM2, higher = weaker binding): 30 fold
TFPI (Homo sapiens, UniProt P10646-1) — free factor Xa (F10 factor Xa; factor Xa inhibition; EA.hy926; 100 µg/mL total protein, final, methyl-β-cyclodextrin): 0.065 nM
B7 (TIMP3 mature) — Ki (MMP2 110-465 (Homo sapiens, UniProt P08253); inhibitor, steady-state kinetics; 37 °C, apparent): 0.9 nM
haspin GFP fusion (Xenopus laevis) — relative abundance (TOP2A/SUMO2 CTD 1222-1579, SUMO2-conjugated lysines (Xenopus laevis); pull-down; interphase egg extract; reference: mitotic Haspin-GFP, higher = less abundant): 73%
F8 A2 domain (human) — decay rate (F8 A1 and A3C1C2 dimer, factor VIIIa; FXa generation activity loss; 1.5 nM, 23 °C; higher = faster decay): 0.14 min⁻¹
CNR1 (Homo sapiens, UniProt P21554) — relative binding (ITGB1 (Homo sapiens, UniProt P05556); co-IP; endothelial cells, cell extracts; clustered integrins, added: anandamide 10 µM, Ca2+ 2 mM, Mn2+ 70 µM; reference: basal, without anandamide, higher = more CB1R bound): 0.31 ± 0.13 fold
F9 mature, Gla residues (Homo sapiens, UniProt P00740) — Km (F11 activated I183A/R184A/D185A (Homo sapiens); fIX cleavage after Arg145, steady-state kinetics; KinTek fit): 10 µM
Usp27x (Mus musculus, UniProt Q8CEG8) — relative co-precipitation (Atxn7l3 (Mus musculus, UniProt A2AWT3); co-IP; mouse ES cells; Usp22 KO; reference: WT cells, higher = more association): 5 fold
B8 — relative recruitment (KIF7 1-543 (Homo sapiens, UniProt Q2M1P5); TIRF microscopy; immobilised microtubules; reference: without Kif7-DM, higher = more recruitment): 3 fold
B9 (TUB1/TUB2 heterodimer D118A) — relative affinity (Kip3 (Saccharomyces cerevisiae, UniProt P53086); TIRF competition; reference: control tubulin, higher = lower affinity): 10 fold
STIM1 (Homo sapiens, UniProt Q13586) — temperature for half recovery (ORAI1 (Homo sapiens, UniProt Q96D31); I_CRAC recovery, whole-cell patch clamp; HEK293T): 36.9 °C
TIF11 (Saccharomyces cerevisiae, UniProt P38912) — rate constant (FUN12 396-1002 (Saccharomyces cerevisiae, UniProt P39730); subunit joining, stopped-flow light scattering; first phase, added: eIF5B•GTP 500 nM): 0.076 s⁻¹
MMP2 fragment R252A/R368A (Homo sapiens) — hydrolysis rate (COL1A1/COL1A2 denatured, gelatin (Homo sapiens); DQ-gelatin fluorescence; 10 nM, 25 °C; higher = faster hydrolysis): 0.105 RFU/s
MENVKKATATTWMVPTAQ (L3MBTL3 52-70 del62 (Homo sapiens, UniProt Q96JM7-2); sequence looked up) — ΔH (Rbpj; ITC; peptide; pH 6.5, 25 °C, NaCl 150 mM): -12.7 kcal/mol
B10 (UGT1A9) — Vmax (O=C(/C=C/c1ccc(O)cc1)CC(=O)/C=C/c1ccc(O)cc1; steady-state kinetics; pH 7.4, 37 °C): 0.00207 µmol/min/mg

Some of these lines once more:
haspin GFP fusion (Xenopus laevis) — relative abundance (TOP2A/SUMO2 CTD 1222-1579, SUMO2-conjugated lysines (Xenopus laevis); pull-down; interphase egg extract; reference: mitotic Haspin-GFP, higher = less abundant): 73%
FGF8 (Homo sapiens, UniProt P55075) — cell proliferation (FGFR3 isoform IIIc; cell proliferation, MTT; BaF3-FGFR3c; 20 nM, 48 h, added: chondroitin sulfate D 4.9 µg/mL; reference: FGF 1 with heparin, higher = more proliferation): 45%
